Published values gathered from unrelated publications.
Numbered parts are unrelated; each lists some results of a single study.
UniProt Q14289, sequence (whole entry, looked up): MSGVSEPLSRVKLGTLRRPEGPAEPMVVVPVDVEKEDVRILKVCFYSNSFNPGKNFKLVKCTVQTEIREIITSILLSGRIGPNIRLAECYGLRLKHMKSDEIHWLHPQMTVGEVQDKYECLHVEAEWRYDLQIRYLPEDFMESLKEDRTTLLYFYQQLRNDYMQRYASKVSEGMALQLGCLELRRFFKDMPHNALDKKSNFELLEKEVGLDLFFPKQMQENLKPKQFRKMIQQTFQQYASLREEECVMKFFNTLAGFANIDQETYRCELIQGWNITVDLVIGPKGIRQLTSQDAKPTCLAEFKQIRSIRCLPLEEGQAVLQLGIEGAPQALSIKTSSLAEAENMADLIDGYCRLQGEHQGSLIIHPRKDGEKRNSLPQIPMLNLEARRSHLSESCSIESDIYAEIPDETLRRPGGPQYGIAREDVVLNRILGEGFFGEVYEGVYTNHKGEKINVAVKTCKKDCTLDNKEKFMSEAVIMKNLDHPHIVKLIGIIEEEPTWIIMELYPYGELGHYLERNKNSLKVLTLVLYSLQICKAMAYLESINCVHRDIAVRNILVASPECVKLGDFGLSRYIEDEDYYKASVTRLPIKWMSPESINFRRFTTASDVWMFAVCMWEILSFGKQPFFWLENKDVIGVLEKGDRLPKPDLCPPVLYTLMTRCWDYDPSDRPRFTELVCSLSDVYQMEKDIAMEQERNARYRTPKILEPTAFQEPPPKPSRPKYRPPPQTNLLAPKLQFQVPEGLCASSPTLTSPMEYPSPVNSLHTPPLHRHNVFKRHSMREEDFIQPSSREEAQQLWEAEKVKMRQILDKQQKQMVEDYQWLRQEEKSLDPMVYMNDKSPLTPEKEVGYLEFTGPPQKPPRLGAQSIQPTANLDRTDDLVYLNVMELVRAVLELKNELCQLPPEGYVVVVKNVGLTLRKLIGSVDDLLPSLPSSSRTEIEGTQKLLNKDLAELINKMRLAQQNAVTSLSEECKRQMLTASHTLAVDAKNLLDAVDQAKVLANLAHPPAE
UniProt P27361, sequence (whole entry, looked up): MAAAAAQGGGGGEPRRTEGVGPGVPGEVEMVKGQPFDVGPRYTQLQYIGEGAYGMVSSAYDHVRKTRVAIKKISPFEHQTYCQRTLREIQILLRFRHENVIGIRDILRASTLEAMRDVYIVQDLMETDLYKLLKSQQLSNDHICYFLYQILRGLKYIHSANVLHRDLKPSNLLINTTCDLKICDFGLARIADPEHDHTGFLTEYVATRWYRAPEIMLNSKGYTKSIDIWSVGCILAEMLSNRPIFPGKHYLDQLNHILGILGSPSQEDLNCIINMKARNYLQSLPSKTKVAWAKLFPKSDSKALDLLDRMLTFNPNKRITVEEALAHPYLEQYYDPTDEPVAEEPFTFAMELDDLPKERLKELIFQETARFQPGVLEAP
UniProt Q8TDR2, sequence (whole entry, looked up): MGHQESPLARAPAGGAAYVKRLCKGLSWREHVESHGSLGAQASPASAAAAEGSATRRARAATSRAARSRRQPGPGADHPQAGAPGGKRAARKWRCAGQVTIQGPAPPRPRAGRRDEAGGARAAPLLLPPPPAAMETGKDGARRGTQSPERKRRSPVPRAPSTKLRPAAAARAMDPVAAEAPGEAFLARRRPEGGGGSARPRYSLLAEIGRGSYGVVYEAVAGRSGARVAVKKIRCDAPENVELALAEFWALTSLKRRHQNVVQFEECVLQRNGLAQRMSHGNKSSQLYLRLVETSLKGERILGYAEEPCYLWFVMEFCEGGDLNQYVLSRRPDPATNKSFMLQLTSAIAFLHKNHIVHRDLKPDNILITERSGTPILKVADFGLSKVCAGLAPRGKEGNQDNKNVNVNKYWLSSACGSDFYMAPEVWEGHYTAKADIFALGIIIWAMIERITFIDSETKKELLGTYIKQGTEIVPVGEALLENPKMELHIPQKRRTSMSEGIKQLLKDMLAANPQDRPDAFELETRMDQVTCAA
UniProt P29317, sequence (whole entry, looked up): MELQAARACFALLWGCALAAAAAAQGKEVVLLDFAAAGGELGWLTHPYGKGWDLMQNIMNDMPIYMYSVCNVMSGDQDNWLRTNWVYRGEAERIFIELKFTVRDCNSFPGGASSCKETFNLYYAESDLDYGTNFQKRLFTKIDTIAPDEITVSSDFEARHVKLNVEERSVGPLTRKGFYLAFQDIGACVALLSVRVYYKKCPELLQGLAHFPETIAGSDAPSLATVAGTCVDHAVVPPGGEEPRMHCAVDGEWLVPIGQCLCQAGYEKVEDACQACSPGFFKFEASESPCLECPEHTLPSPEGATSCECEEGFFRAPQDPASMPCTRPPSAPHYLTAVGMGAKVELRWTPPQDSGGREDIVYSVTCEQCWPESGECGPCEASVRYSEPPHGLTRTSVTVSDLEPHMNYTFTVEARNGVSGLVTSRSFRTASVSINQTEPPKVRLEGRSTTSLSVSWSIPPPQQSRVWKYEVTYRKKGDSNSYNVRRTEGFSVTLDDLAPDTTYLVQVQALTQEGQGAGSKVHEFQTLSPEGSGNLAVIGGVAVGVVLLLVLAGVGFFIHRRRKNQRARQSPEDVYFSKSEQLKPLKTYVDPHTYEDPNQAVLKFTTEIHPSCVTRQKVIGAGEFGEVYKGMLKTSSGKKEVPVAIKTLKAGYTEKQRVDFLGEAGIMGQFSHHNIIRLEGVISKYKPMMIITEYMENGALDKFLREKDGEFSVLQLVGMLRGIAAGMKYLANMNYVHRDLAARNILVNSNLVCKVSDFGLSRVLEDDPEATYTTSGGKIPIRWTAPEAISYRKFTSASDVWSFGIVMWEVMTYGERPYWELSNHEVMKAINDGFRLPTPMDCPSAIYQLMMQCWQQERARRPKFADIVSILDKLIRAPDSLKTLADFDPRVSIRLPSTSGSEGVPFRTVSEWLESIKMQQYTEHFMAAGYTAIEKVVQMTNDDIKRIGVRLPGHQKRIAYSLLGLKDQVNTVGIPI
UniProt Q9Y6E0, sequence (whole entry, looked up): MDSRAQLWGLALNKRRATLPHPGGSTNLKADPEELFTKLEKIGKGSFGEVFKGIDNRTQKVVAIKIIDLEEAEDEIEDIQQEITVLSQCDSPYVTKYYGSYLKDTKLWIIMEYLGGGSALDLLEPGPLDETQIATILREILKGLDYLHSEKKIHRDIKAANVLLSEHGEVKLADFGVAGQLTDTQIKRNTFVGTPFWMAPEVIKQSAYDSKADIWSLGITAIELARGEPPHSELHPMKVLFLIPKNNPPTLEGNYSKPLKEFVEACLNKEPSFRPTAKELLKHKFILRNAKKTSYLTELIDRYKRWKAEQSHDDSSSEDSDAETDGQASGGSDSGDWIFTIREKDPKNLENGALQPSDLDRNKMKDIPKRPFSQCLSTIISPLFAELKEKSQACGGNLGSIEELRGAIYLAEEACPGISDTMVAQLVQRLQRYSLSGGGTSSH

Sample 1
Organism: Sarcocystis neurona
Observed: parasite growth
Tested at: 10 µM
Time: 96 h
Notes: first screen
Reference: untreated
| SMILES | log2 fold change |
| --- | --- |
| CC(C)NCC(O)COc1ccc(COCCOC(C)C)cc1 (stereo not drawn) | 0.11 |
| CCn1cc(C(=O)O)c(=O)c2cc(F)c(N3CCNCC3)cc21 | 0.026 |
| C[C@@H](c1ncncc1F)[C@](O)(Cn1cncn1)c1ccc(F)cc1F | 0.26 |
| COCCOC(=O)C1=C(C)NC(C)=C(C(=O)OC(C)C)C1c1cccc([N+](=O)[O-])c1 (stereo not drawn) | 0.19 |
| CC(C)c1nc(CN(C)C(=O)N[C@H](C(=O)N[C@@H](Cc2ccccc2)C[C@H](O)[C@H](Cc2ccccc2)NC(=O)OCc2cncs2)C(C)C)cs1 | -0.95 |

Sample 2
Target: ALK tyrosine kinase receptor (ALK, Homo sapiens, UniProt Q9UM73)
UniProt Q9UM73, sequence (whole entry, looked up): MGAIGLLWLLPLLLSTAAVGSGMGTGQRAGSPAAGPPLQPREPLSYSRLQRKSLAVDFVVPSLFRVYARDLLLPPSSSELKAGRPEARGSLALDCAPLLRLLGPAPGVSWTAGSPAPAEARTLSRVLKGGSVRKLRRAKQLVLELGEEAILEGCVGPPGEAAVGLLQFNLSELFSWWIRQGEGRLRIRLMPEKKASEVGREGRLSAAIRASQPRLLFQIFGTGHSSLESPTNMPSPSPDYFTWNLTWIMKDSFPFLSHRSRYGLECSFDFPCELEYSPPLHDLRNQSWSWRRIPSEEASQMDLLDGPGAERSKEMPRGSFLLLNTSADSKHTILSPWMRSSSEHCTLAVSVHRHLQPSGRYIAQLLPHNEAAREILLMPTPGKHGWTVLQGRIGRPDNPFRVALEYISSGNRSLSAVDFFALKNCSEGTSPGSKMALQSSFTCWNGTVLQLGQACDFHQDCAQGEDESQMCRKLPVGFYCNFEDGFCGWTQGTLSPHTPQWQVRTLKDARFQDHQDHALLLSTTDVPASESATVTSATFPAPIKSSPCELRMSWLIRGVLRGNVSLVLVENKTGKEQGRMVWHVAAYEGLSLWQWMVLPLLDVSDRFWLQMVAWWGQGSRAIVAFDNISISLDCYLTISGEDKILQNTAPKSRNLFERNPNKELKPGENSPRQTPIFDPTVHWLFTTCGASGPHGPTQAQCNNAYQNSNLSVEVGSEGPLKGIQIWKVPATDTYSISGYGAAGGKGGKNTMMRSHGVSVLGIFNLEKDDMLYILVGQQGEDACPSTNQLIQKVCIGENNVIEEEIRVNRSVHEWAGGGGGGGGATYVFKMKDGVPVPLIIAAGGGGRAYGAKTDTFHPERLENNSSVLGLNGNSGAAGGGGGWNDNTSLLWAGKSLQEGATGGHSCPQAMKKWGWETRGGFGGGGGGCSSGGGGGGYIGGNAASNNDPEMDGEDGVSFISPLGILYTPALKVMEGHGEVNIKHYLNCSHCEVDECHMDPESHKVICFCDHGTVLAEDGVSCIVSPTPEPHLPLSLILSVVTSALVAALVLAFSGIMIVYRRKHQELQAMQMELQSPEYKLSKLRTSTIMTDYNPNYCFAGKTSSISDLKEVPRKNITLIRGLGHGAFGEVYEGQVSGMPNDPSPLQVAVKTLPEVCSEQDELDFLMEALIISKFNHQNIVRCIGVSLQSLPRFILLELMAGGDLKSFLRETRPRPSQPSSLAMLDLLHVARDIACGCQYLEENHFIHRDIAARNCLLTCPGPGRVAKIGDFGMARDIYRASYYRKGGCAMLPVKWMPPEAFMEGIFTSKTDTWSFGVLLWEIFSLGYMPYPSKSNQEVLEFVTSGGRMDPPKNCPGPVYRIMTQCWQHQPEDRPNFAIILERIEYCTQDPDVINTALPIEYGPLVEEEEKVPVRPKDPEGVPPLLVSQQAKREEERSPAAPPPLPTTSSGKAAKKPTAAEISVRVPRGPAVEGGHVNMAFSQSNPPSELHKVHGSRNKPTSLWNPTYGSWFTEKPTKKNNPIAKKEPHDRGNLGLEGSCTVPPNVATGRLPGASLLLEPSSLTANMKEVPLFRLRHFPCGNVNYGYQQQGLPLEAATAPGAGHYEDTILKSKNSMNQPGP
Observed: enzyme activity
Mode: inhibitor
Tested at: 0.5 µM
Reference: control
| Compound | remaining activity [%] |
| --- | --- |
| NC(=O)c1ccc(N(C(N)=O)c2c(F)cccc2F)nc1-c1ccc(F)cc1F | 99.6 |
| N#CC(=C(N)Sc1ccc(N)cc1)c1ccccc1C(F)(F)F | 100 |
| CC(=O)c1ccc(N2CCOCC2)cc1O | 106 |
| CC#CC(=O)Nc1cc2c(Nc3ccc(F)c(Cl)c3)ncnc2cn1 | 103 |
| CCc1[nH]c(-c2ccc(OC)cc2)nc1-c1ccncc1 | 106 |
| CSc1nc(-c2ccnc(N[C@@H](C)c3ccccc3)c2)c(-c2ccc(F)cc2)[nH]1 (racemic) | 93.3 |
| Nc1ncnc2c1cnn2-c1ccccc1 | 90.9 |
| CCCC(=O)Oc1ccc2[nH]c(C(=O)c3cc4ccccc4[nH]3)cc2c1 | 83.7 |

Sample 3
Host: mouse
Matrix: microsomes or S9
Tested at: 2 µM
Time: 0.5 h
| SMILES | remaining compound |
| --- | --- |
| Cc1nccc(CNc2c(C#N)cnc3c(F)ccc(Cl)c23)n1 | 41.4% |
| Nc1ncc(Br)cc1S(=O)(=O)NCCC(=O)NCc1ccco1 | 1.31% |
| COc1nc(NCCc2c[nH]c3ccccc23)nc(Nc2ccc3[nH]ncc3c2)n1 | 5.49% |
| O=C(Nc1cccc2c1N(c1ncccn1)CC2)c1ccccc1 | 0.0814% |
| COc1ccnc(Cn2cnc(Cl)c2Cl)c1OC | 9.59% |
| Oc1cc(-c2cccc(-c3ccc4c(c3)OCO4)c2)nn1-c1ccccn1 | 15% |

Sample 4
SMILES: CC(=O)N1CCC(c2ccc(C(=O)NC(=N)N)cc2C(F)(F)F)CC1
Method: competition with immobilised ligand
Tested at: 1 µM
| target | observed | remaining binding |
| --- | --- | --- |
| Serine/threonine-protein kinase 24 (STK24, Homo sapiens, UniProt Q9Y6E0) | cell-free assay | 100% |
| Mitogen-activated protein kinase 3 (MAPK3, Homo sapiens, UniProt P27361) | cell-free assay | 100% |
| Tyrosine-protein kinase ABL1, non-phosphorylated (ABL1, Homo sapiens, UniProt P00519, T315I) | cell-free assay | 95% |
| Serine/threonine-protein kinase MAK (MAK, Homo sapiens, UniProt P20794) | binding | 79% |
| Ankyrin repeat and protein kinase domain-containing protein 1 (ANKK1, Homo sapiens, UniProt Q8NFD2) | cell-free assay | 100% |
| Serine/threonine-protein kinase 35 (STK35, Homo sapiens, UniProt Q8TDR2) | cell-free assay | 100% |
| Serine/threonine-protein kinase B-raf (BRAF, Homo sapiens, UniProt P15056, V600E) | cell-free assay | 100% |
| Phosphatidylinositol 4-phosphate 5-kinase type-1 alpha (PIP5K1A, Homo sapiens, UniProt Q99755) | cell-free assay | 94% |
| ALK tyrosine kinase receptor (ALK, Homo sapiens, UniProt Q9UM73) | cell-free assay | 93% |
| Receptor-type tyrosine-protein kinase FLT3 (FLT3, Homo sapiens, UniProt P36888, N841I) | cell-free assay | 100% |
| Tyrosine-protein kinase Fes/Fps (FES, Homo sapiens, UniProt P07332) | cell-free assay | 96% |
| cAMP-dependent protein kinase catalytic subunit alpha (PRKACA, Homo sapiens, UniProt P17612) | cell-free assay | 100% |
| Protein-tyrosine kinase 2-beta (PTK2B, Homo sapiens, UniProt Q14289) | cell-free assay | 100% |
| Ephrin type-B receptor 3 (EPHB3, Homo sapiens, UniProt P54753) | cell-free assay | 97% |
| Ephrin type-A receptor 2 (EPHA2, Homo sapiens, UniProt P29317) | cell-free assay | 100% |
| Serine/threonine-protein kinase PLK3 (PLK3, Homo sapiens, UniProt Q9H4B4) | cell-free assay | 82% |

Other studies, line by line
| Compound | host | dose | notes | quantity | value |
| --- | --- | --- | --- | --- | --- |
| CC(C)n1cnc(-c2ccc(F)cc2)c1-c1ncc(C(=O)Nc2ccc(N3CCN(C)CC3)cc2)[nH]1 | IPF patients | 30 mg once daily | adverse event | coronary arteriosclerosis incidence | 0% |

A few entries again (sample 3):
| SMILES | remaining compound |
| --- | --- |
| Oc1cc(-c2cccc(-c3ccc4c(c3)OCO4)c2)nn1-c1ccccn1 | 15% |
| Nc1ncc(Br)cc1S(=O)(=O)NCCC(=O)NCc1ccco1 | 1.31% |
